Published values from different studies.
Each numbered part is a random draw from the data of one study; scales do not carry over between parts. Changes are numbered by the printed parent chain.

Series 1 — method: RNA Bind-n-Seq; form: RNA; matrix: in vitro; tested at: 365 nM; reference: no-protein control; reading: higher = stronger binding
Target: RNA binding protein fox-1 homolog 2, RRM domain, GST-SBP tag (RBFOX2, Homo sapiens, UniProt O43251-10, residues 100-194)
Notes: natural RNA segment, single round, ends assumed
All sequences stand within: GGGAGUUCUACAGUCCGACGAUC … UGGAAUUCUCGGGUGCCAA
Construct (chain): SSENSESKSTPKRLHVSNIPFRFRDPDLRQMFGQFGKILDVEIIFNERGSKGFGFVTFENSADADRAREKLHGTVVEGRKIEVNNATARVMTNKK
For `GCUGAAGGUUUUACAUUACGUUUUCAAUUAAGUUGCCAACGUUUUAACAACUGGAGAAUGGUAUUCCAGGCCCCAAGAAACUUUGCUUAGGAUUGAUUCUGAGAUGACAC`, “RBNS enrichment (R)” read 0.361.
`UGAAGUUUGUCCUAGUUUACAUCUUAGAGAGGGGAGUAUACUUGUGUUUGUUUCAUGUGCCUGAAUAUCUUAAGCCACUUUCUGCAAAAGCUGUUUCUUACAGAUGAAGU` — result for “RBNS enrichment (R)”: 1.27.
`UAUUCCCUGAAGUAUGUAAUCCUUUGUACAGCUUUUCUAUCUUACAUAUAAAAAGGAGACAUGAGAAAGUACUUUUCUCUAGAGCUCCAACACUACUGGCUCUUGCUUUU`: “RBNS enrichment (R)” 0.963.
`UUAGGUCAUCUCAAGGCUGAUACUUGAGCUGUGUGCCCAGAGAUCAUGCAUUUAGAUUUAUAUUUUUGCCAGAAAAUACAAGGUUAUAAUAAAACUAAGAACUACCAUUU`: “RBNS enrichment (R)” 0.311.
`CCAACUUUGACGGAUUUCUGUGUGGAGAGUUGAGAUUUCUAUUUCCUGUUUUGGUUUAACAGUUUCUGAGAUACGUGUGUUAUAGGUUCAUUUACUACGAUCUGUCCACA` — result for “RBNS enrichment (R)”: 0.382.
Under “RBNS enrichment (R)”, `GGCUGGAUGGAGUUUCUUUUGUAAGGUGCACAACACAUUCUUGACAAAUGUGAGUCUCCUGAUCAAUUUAAAUGUUUGAGAUUGAAUAUCUAAUUAAUAAUUCAAUUUUG` is recorded as 0.423.
`UUGCCCAGCUCAGCAUCAGCUAACCACAACCCUGGAAGAGGCGGCCUAAGGAGAUUCCACACAUGCGUAUCUCUGUUGCUUCUAUUGGCCUAAACCCACUACUGCCAAAG`: “RBNS enrichment (R)” 0.811.
`CCUGGGACCCGCCUGAUAGGAGAGAACUGACUUCUACAAGUUGUCCUCUGACCCAAUAGAUUUACAAACAAACAAACAAAAGAUUAAAAAUAAGAAAAGAGGACUUAAUU` — result for “RBNS enrichment (R)”: 0.627.
Under “RBNS enrichment (R)”, `ACUACUAUUCUUAGUUUGUAAAUUGUCCUUUUGAUACCAUCUUGUUUUCUUUUGUAGGUAUAAAUAAAUACUUGACAAUAAAGGUGUGAAUUUUUUAUUACAUUAAAACU` is recorded as 0.458.
Under “RBNS enrichment (R)”, `GGUCUGGGCCCUGCCCACCCUCCUGCCCUCCCCCAGCCACCUGGCUGCAUUUUUGAAGCUGCCUGGCCCCCAGGGGCCCUGACCUGACCUCUCUCCUCUCCCCUCACCCU` is recorded as 0.686.
Under “RBNS enrichment (R)”, `CAGGCCCUCAUCUGAGGUAAGAAUGUACAUCAGCUGGCAGCCCCAAGCAAGUGGCUGCAGGGACACUGAUGCCACAGCUCCUGGGCCGGCCCUCACAUCUGAAACUGGUU` is recorded as 0.758.
`AACAGGAUCUGUCCCUACCCAGCACAGCAAAUGGUUGUAGUAAUUGCCAAAGCCCUCAUAAAGCCCUCCGGCUUGAGGAGAGAGUGUAUAGUCAUGGGUUCUGCCUCUGU`: “RBNS enrichment (R)” 0.275.

Series 2 — target: CCNB3, cyclin fold, Cln2 fusion (human); method: yeast growth competition, sequencing; matrix: yeast; notes: weak parent motif; reference: not given; reading: higher = stronger binding
Starting sequence: CDC25A docking peptide (human); PPHRRRLLFACSP; partner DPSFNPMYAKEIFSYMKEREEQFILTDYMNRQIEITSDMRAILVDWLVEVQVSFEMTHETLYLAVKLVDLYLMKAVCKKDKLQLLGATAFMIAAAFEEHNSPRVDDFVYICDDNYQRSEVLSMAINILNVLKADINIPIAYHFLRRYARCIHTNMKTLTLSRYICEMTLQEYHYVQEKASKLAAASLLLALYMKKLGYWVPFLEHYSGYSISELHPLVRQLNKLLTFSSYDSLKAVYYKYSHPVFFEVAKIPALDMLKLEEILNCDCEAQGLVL
Under “normalised enrichment score”, `R6T` is recorded as 0.281.
`C11A`: “normalised enrichment score” 0.522.
`S12G` — result for “normalised enrichment score”: 0.415.
For `P2V`, “normalised enrichment score” read -0.133.
`A10Y`: “normalised enrichment score” -0.395.
For `H3A`, “normalised enrichment score” read 0.259.
`L7V`: “normalised enrichment score” 0.0703.
`P1I`: “normalised enrichment score” 0.364.
`S12I`: “normalised enrichment score” 0.429.
Under “normalised enrichment score”, `R5K` is recorded as 0.539.
For `C11V`, “normalised enrichment score” read 0.214.
For `A10D`, “normalised enrichment score” read 0.215.
`P13E` — result for “normalised enrichment score”: 0.0274.
`R4H`: “normalised enrichment score” -0.21.
`C11L`: “normalised enrichment score” 0.335.
`L8N` — result for “normalised enrichment score”: 0.288.
`H3L` — result for “normalised enrichment score”: 0.401.
`R5F` — result for “normalised enrichment score”: 0.307.
Under “normalised enrichment score”, `P2G` is recorded as 0.26.
`R5T` — result for “normalised enrichment score”: 0.0449.
`L8R`: “normalised enrichment score” 0.112.
`P13A`: “normalised enrichment score” 0.34.
Under “normalised enrichment score”, `P2L` is recorded as 0.133.
Under “normalised enrichment score”, `P1N` is recorded as 0.105.
For `R5Y`, “normalised enrichment score” read -0.0663.

Series 3 — method: RNA Bind-n-Seq; form: RNA; matrix: in vitro; tested at: 1 µM; notes: whole 134-nt RNA, ends assumed; added: 150 mM KCl; reference: input library; reading: higher = stronger binding
Target: Ras GTPase-activating protein-binding protein 1, C-terminal RGG region (G3BP1, Homo sapiens, UniProt Q13283)
Sequence of UniProt Q13283 (whole entry, looked up): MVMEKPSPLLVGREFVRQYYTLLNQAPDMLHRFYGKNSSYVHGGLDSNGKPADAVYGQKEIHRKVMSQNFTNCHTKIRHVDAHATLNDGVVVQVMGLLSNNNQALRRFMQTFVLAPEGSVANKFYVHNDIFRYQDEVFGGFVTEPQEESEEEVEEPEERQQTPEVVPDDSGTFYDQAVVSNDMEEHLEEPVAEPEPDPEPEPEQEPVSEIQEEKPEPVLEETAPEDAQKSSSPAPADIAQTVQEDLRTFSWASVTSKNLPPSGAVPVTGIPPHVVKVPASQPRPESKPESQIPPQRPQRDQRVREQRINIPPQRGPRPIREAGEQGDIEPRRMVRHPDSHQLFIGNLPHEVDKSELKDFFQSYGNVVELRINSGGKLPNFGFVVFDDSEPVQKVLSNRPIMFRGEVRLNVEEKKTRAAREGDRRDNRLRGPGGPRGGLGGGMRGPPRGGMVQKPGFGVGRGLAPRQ
All sequences stand within: GGGAGUUCUACAGUCCGACGAUC … UGGAAUUCUCGGGUGUCAAGG
With `CAAGUCCUGUGCUACACAUCGUAUGUACCGAAUCGGUUUUUUUGGUUUGGUUUGGAAAGUAUUAUGUUACGCCGUUCGGAUCUGCACUUC` the log2 enrichment was -1.81.
With `CUGUGCUACACAUCGUAUGUACCGAAUCGGGGUUUUUUGGGGUUUUUUGGGGUUUUUUGGGAAAGUAUUAUGUUACGCCGUUCGGAUCUG` the log2 enrichment was -0.59.
With `UGGCCCUGGUGGCAUGCGGGGAGGAAGAGGUGGCAUCAUGGAUCGUGGUGGUCCCGGUGGAAUGUUCAGAGGUGGCCGUGGUGGAGACAG` the log2 enrichment was 2.12.
`UGGGAGGUGGAUUUUGUUUAUUUUUUUAGCUCAUUUCCAGGGGUGGGAAUUUUUUUUUAAUAUGUGUCGUGAAUAAAGUUGUUUUUGAAA` gave a log2 enrichment of 3.84.
`UGGGAGGUGGAUUUUGUUUAUUUUUUUAGCUCAUUUCCAGGGGUGGGAAUUUUUUUUUAUUAUGUGUCAUGAAUAAAGUUGUUUUUGAAA` has a log2 enrichment of 3.44.
`UUACACAAACCUGCAGGUGAAGACAGGCCAGCGGACCCUCAUCAACCCCAAGCCCUGUGGCCAGUUUUGCUGCUGUGAAGUGCUGGGCUG` gave a log2 enrichment of -0.943.
With `UGUGCUACACAUCGUAUGUACCGAAUCGGGGUUUUUGGGGAAAAAAAGGGGUUUUUUUGGGGAAAGUAUUAUGUUACGCCGUUCGGAUCU` the log2 enrichment was 1.03.
With `CCUGUGCUACACAUCGUAUGUACCGAAUCGGGGAAAAAAGGGAAAAAAGGGAAAAAAGGGGAAAGUAUUAUGUUACGCCGUUCGGAUCUG` the log2 enrichment was -1.32.
`GUCCUGUGCUACACAUCGUAUGUACCGAAUCGGGGUGGGGAAAAAGGGGUUUUUGGGGAAAGUAUUAUGUUACGCCGUUCGGAUCUGCAC` has a log2 enrichment of 1.8.
`GCAGGAAGUAAAAACAAAUGGAAAUGCUUCGGAUAGUGGCAGGGGUGGGGGUUGCUAAGGAAAGAAAGGGAUGGGAGUGGGUAAAGAGUU` gave a log2 enrichment of 2.04.
For `CACAGACAACACGCACCCACACAGACACAGAGGGAAGGGGUUGGGAUUGGGACAGGGUGCACAGCAGGGCGGGGUAGGACCCCAGCCCCU`, the log2 enrichment was -0.749.

Series 4 — method: RNAcompete; form: RNA; matrix: in vitro; tested at: 20 nM; notes: 7-mer, probes averaged, single round; reference: mean of 7-mers; reading: higher = stronger binding
Target: PABPC1L2, full length, GST fusion (mouse, UniProt A0ABA7IW68)
`CACGGAA` gave a 7-mer Z-score of 0.256.
`UAAAACC` gave a 7-mer Z-score of 0.914.
`CGUGACG` gave a 7-mer Z-score of -0.0264.
With `CCGAGCU` the 7-mer Z-score was -0.235.
`GACUACG` has a 7-mer Z-score of -0.121.
For `CUUUUUA`, the 7-mer Z-score was 0.327.
For `UAGAUGG`, the 7-mer Z-score was -0.0228.
The 7-mer Z-score of `ACGAGUU` is reported as -0.226.
The 7-mer Z-score of `GUGUCAA` is reported as -0.119.
The 7-mer Z-score of `AUCCCAC` is reported as -0.3.
`GUGAAUU` gave a 7-mer Z-score of -0.182.
`AUGAUGG` gave a 7-mer Z-score of 0.222.
`GGCCUAU` has a 7-mer Z-score of -0.112.
The 7-mer Z-score of `UGUUAAC` is reported as -0.275.
`CCGCAGG` gave a 7-mer Z-score of -0.155.
`GGGUAUA` gave a 7-mer Z-score of 0.16.

For quick reference, copied from above (series 1):
`UAUUCCCUGAAGUAUGUAAUCCUUUGUACAGCUUUUCUAUCUUACAUAUAAAAAGGAGACAUGAGAAAGUACUUUUCUCUAGAGCUCCAACACUACUGGCUCUUGCUUUU`: “RBNS enrichment (R)” 0.963.
`UUAGGUCAUCUCAAGGCUGAUACUUGAGCUGUGUGCCCAGAGAUCAUGCAUUUAGAUUUAUAUUUUUGCCAGAAAAUACAAGGUUAUAAUAAAACUAAGAACUACCAUUU`: “RBNS enrichment (R)” 0.311.
`CCAACUUUGACGGAUUUCUGUGUGGAGAGUUGAGAUUUCUAUUUCCUGUUUUGGUUUAACAGUUUCUGAGAUACGUGUGUUAUAGGUUCAUUUACUACGAUCUGUCCACA` — result for “RBNS enrichment (R)”: 0.382.
Under “RBNS enrichment (R)”, `GGCUGGAUGGAGUUUCUUUUGUAAGGUGCACAACACAUUCUUGACAAAUGUGAGUCUCCUGAUCAAUUUAAAUGUUUGAGAUUGAAUAUCUAAUUAAUAAUUCAAUUUUG` is recorded as 0.423.
`UUGCCCAGCUCAGCAUCAGCUAACCACAACCCUGGAAGAGGCGGCCUAAGGAGAUUCCACACAUGCGUAUCUCUGUUGCUUCUAUUGGCCUAAACCCACUACUGCCAAAG`: “RBNS enrichment (R)” 0.811.
`CCUGGGACCCGCCUGAUAGGAGAGAACUGACUUCUACAAGUUGUCCUCUGACCCAAUAGAUUUACAAACAAACAAACAAAAGAUUAAAAAUAAGAAAAGAGGACUUAAUU` — result for “RBNS enrichment (R)”: 0.627.
Under “RBNS enrichment (R)”, `ACUACUAUUCUUAGUUUGUAAAUUGUCCUUUUGAUACCAUCUUGUUUUCUUUUGUAGGUAUAAAUAAAUACUUGACAAUAAAGGUGUGAAUUUUUUAUUACAUUAAAACU` is recorded as 0.458.
Under “RBNS enrichment (R)”, `GGUCUGGGCCCUGCCCACCCUCCUGCCCUCCCCCAGCCACCUGGCUGCAUUUUUGAAGCUGCCUGGCCCCCAGGGGCCCUGACCUGACCUCUCUCCUCUCCCCUCACCCU` is recorded as 0.686.
